# Published values pooled from the literature.
# Lines come from different studies, so protocols differ. Numbers after ± are the reported error.
Compound,cell line,test,system,setting,how to read,measurement,result
CC1CCC2C(C)C(OC(=O)CCC(=O)N3CCC(Nc4ccc(S(=O)(=O)NC(=O)c5ccc(N6CCN(CC7=C(c8ccc(Cl)cc8)CC(C)(C)CC7)CC6)cc5Oc5cnc6[nH]ccc6c5)cc4[N+](=O)[O-])CC3)OC3OC4(C)CCC1C32OO4 (centres unmarked),THP-1,"annexin V/PI flow cytometry, measured: annexin V+/PI+",,"3.2 µM, 24 h",,late apoptotic cells,31.6%
CC[C@H](C)[C@H](NC(=O)[C@H](C)NC(=O)CNC(=O)[C@H](Cc1ccccc1)NC(=O)[C@H](CC(N)=O)NC(=O)[C@H](CC(N)=O)NC(=O)[C@H](CO)NC(=O)[C@H](CO)NC(=O)[C@H](Cc1c[nH]cn1)NC(=O)[C@@H](NC(=O)[C@H](CC(C)C)NC(=O)[C@H](Cc1ccccc1)NC(=O)[C@H](CC(N)=O)NC(=O)[C@H](C)NC(=O)[C@H](CC(C)C)NC(=O)[C@H](CCCNC(=N)N)NC(=O)[C@H](CCC(N)=O)NC(=O)[C@@H](NC(=O)[C@H](C)NC(=O)[C@@H]1CSSC[C@H](NC(=O)[C@@H](N)CCCCN)C(=O)N[C@@H](CC(N)=O)C(=O)N[C@@H]([C@@H](C)O)C(=O)N[C@@H](C)C(=O)N[C@@H]([C@@H](C)O)C(=O)N1)[C@@H](C)O)C(C)C)C(=O)N[C@@H](CC(C)C)C(=O)N[C@@H](CO)C(=O)N[C@@H](CO)C(=O)N[C@H](C(=O)N[C@@H](CC(N)=O)C(=O)N[C@H](C(=O)NCC(=O)N[C@@H](CO)C(=O)N[C@@H](CC(N)=O)C(=O)N[C@H](C(=O)N[C@@H](Cc1ccc(O)cc1)C(N)=O)[C@@H](C)O)C(C)C)[C@@H](C)O,RIN-m5F,ELISA,cytosolic and organelle fractions,24 h,,internalized fraction,< 10%
CC(C)(C)C(=O)OCOP(=O)(OCOC(=O)C(C)(C)C)C1CCCN(O)C1=O (centres unmarked),SW-620,,,,,log TGI,-4.37 log M
CSCC[C@H](N)C(=O)N[C@@H](C)C(=O)N[C@@H](Cc1c[nH]c2ccccc12)C(=O)N[C@@H](Cc1c[nH]cn1)C(=O)N[C@@H](CC(=O)O)C(=O)N[C@@H](CC(=O)O)C(=O)N[C@@H](CCC(=O)O)C(=O)N[C@@H](CCC(=O)O)C(=O)N[C@@H](Cc1ccccc1)C(=O)N[C@@H](C)C(=O)N[C@@H](CCCNC(=N)N)C(=O)N[C@@H](CCCNC(=N)N)C(=O)N[C@@H](CCCNC(=N)N)C(=O)N[C@@H](CCCNC(=N)N)C(=O)NCCCCCC(=O)NCCCCC(NC(=O)CCCCCNC(=O)[C@H](CCCNC(=N)N)NC(=O)[C@H](CCCNC(=N)N)NC(=O)[C@H](CCCNC(=N)N)NC(=O)[C@H](CCCNC(=N)N)NC(=O)[C@H](C)NC(=O)[C@H](Cc1ccccc1)NC(=O)[C@H](CCC(=O)O)NC(=O)[C@H](CCC(=O)O)NC(=O)[C@H](CC(=O)O)NC(=O)[C@H](CC(=O)O)NC(=O)[C@H](Cc1c[nH]cn1)NC(=O)[C@H](Cc1c[nH]c2ccccc12)NC(=O)[C@H](C)NC(=O)[C@@H](N)CCSC)C(=O)NCCCCC(NC(=O)C(CCCCNC(=O)CCCCCNC(=O)[C@H](CCCNC(=N)N)NC(=O)[C@H](CCCNC(=N)N)NC(=O)[C@H](CCCNC(=N)N)NC(=O)[C@H](CCCNC(=N)N)NC(=O)[C@H](C)NC(=O)[C@H](Cc1ccccc1)NC(=O)[C@H](CCC(=O)O)NC(=O)[C@H](CCC(=O)O)NC(=O)[C@H](CC(=O)O)NC(=O)[C@H](CC(=O)O)NC(=O)[C@H](Cc1c[nH]cn1)NC(=O)[C@H](Cc1c[nH]c2ccccc12)NC(=O)[C@H](C)NC(=O)[C@@H](N)CCSC)NC(=O)CCCCCNC(=O)[C@H](CCCNC(=N)N)NC(=O)[C@H](CCCNC(=N)N)NC(=O)[C@H](CCCNC(=N)N)NC(=O)[C@H](CCCNC(=N)N)NC(=O)[C@H](C)NC(=O)[C@H](Cc1ccccc1)NC(=O)[C@H](CCC(=O)O)NC(=O)[C@H](CCC(=O)O)NC(=O)[C@H](CC(=O)O)NC(=O)[C@H](CC(=O)O)NC(=O)[C@H](Cc1c[nH]cn1)NC(=O)[C@H](Cc1c[nH]c2ccccc12)NC(=O)[C@H](C)NC(=O)[C@@H](N)CCSC)C(N)=O (some centres unmarked),mouse bone marrow macrophages,"RT-qPCR, measured: Mapk14 (p38α)",,"concentration not given, mean, unit not given, with: RANKL",baseline: RANKL alone,mRNA level,1.06
CSCC[C@H](NC(=O)[C@@H](NC(=O)[C@H](CCC(N)=O)NC(=O)[C@H](CO)NC(=O)[C@@H](N)C(C)C)[C@@H](C)O)C(=O)N[C@@H](CCCNC(=N)N)C(=O)N[C@@H](CCC(N)=O)C(=O)N[C@H](C(=O)N[C@@H](C)C(=O)N[C@H](C(=O)N1CCC[C@H]1C(=O)N[C@@H](CC(C)C)C(=O)N[C@@H](CC(C)C)C(=O)N[C@@H](Cc1c[nH]c2ccccc12)C(=O)N[C@@H](Cc1ccccc1)C(=O)N[C@@H](Cc1c[nH]c2ccccc12)C(=O)N[C@H](C(=O)NCC(=O)N[C@@H](CO)C(=O)N[C@@H](CC(C)C)C(=O)NCCOCCOCCOCCOCCOCCOCCOCCOCCOCCOCCOCCOCCC(=O)N[C@@H](CS)C(N)=O)[C@@H](C)O)C(C)C)[C@@H](C)O,HCC2279 lung adenocarcinoma,"cell binding, phage binding, measured: output/input phage",,"10 min, 37 °C",baseline: control phage,selectivity ratio,13 ± 6.9
O=C(O)c1ccc(-c2nc(-c3ccccc3Cl)c3sccn23)cc1,HEL,flow cytometry,,0.01 mM,,CD235a-positive cells,86.6%
Cc1cc(Oc2nc(N3CC[C@@H](c4ccncc4)C3)ncc2F)[nH]n1,HCT-116,cell proliferation,colon cancer,,,IC50,47.9 µM
NC(=O)N/N=C/c1ccc(OCc2ccccc2)cc1,IMR-32,,,"100 µg/mL, 24 h",higher = more activity,catalase activity (OD450),0.139 a.u.
O=C(C[Se]C(=O)c1ccccc1)Nc1cccc(C(F)(F)F)c1,NCI60 breast subpanel,NCI60 five-dose screen,,,,CC50,21.6 µM
Cc1ccc(C(C)C)cc1.Cc1ccc(C(C)C)cc1.Cc1ccc(C(C)C)cc1.Cc1ccc(C(C)C)cc1.O=S(=O)(O)C(F)(F)F.O=S(=O)(O)C(F)(F)F.O=S(=O)(O)C(F)(F)F.O=S(=O)(O)C(F)(F)F.c1ccc2c3c4ccccc4c(c2c1)-c1cn(nn1)-c1cc[n+](cc1)[Ru-]1[O]c2ccc4c5c(ccc(c25)=[O+]1)=[O+][Ru-]([O]4)[n+]1ccc(cc1)-n1cc(nn1)-c1c2ccccc2c(c2ccccc12)-c1cn(nn1)-c1cc[n+](cc1)[Ru-]1[O]c2ccc4c5c(ccc(c25)=[O+]1)=[O+][Ru-]([O]4)[n+]1ccc(cc1)-n1cc-3nn1,HCT-15,"cell growth, MTT",,"24 h, 20 µM preincubated in medium 48 h at 37 °C",,IC50,16.9 ± 0.9 µM
CC[C@H](C)[C@H](NC(=O)[C@@H](NC(=O)[C@@H]1CCCN1C(=O)[C@@H](NC(=O)[C@@H](NC(=O)[C@H](Cc1c[nH]cn1)NC(=O)[C@@H]1CCCN1C(=O)[C@H](CC(C)C)NC(=O)[C@@H](NC(=O)[C@H](Cc1c[nH]cn1)NC(=O)[C@H](CCCCN)NC(=O)[C@H](C)NC(=O)[C@H](CO)NC(=O)CNC(=O)[C@H](CC(C)C)NC(=O)[C@@H](NC(=O)CNC(=O)[C@H](Cc1ccccc1)NC(=O)[C@H](CC(C)C)NC(=O)CNC(=O)[C@@H](N)Cc1ccc(O)cc1)C(C)C)C(C)C)C(C)C)C(C)C)C(C)C)C(=O)N[C@@H](C)C(=O)N[C@@H](CCC(=O)O)C(=O)N[C@@H](Cc1c[nH]cn1)C(=O)N[C@@H](CC(C)C)C(N)=O,LO2,MTT,,"30 µg/mL, 24 h",,viability,75.8 ± 2.72%
COc1ccc2c(c1)c(CC(=O)[Se]CC(=O)Nc1cccc(C(F)(F)F)c1)c(C)n2C(=O)c1ccc(Cl)cc1,NCI60 colon subpanel,NCI60 five-dose screen,,,,CC50,26.2 µM
C[C@@H]1O[C@H]2O[C@@H]3C4(O)C(=O)c5cccc(O)c5C(=O)C4(O)O[C@]3(C)[C@]21O (some centres unmarked),MDA-MB-231 and Vero,MTT,,,baseline: CC50 Vero over EC50 MDA-MB-231,selectivity index,1.15
O=C(C[Se]C(=O)c1cccs1)Nc1cccc(C(F)(F)F)c1,NCI60 colon subpanel,NCI60 five-dose screen,,,,mean TGI,8.11 µM
CC(C)C[C@H](NC(=O)[C@H](CC(=O)O)NC(=O)CNC(=O)[C@@H](N)CCCNC(=N)N)C(=O)N[C@@H](C)C(=O)N[C@H](C(=O)N[C@@H](CC(C)C)C(=O)N[C@@H](CCCNC(=N)N)C(=O)N[C@@H](CCC(N)=O)C(=O)N[C@@H](CC(C)C)C(=O)N[C@@H](C)C(=O)N[C@@H](CCC(N)=O)C(=O)N[C@@H](CCC(=O)O)C(=O)N[C@@H](CC(=O)O)C(=O)NCC(=O)N[C@H](C(=O)N[C@H](C(=O)NCC(=O)N[C@H](C(=O)N[C@@H](CCCNC(=N)N)C(=O)NCCOCCOCCOCCOCCOCCOCCOCCOCCOCCOCCOCCOCCC(=O)N[C@@H](CS)C(N)=O)C(C)C)C(C)C)C(C)C)[C@@H](C)O,MDA-MB-231 breast cancer,"cell binding, phage binding, measured: output/input phage",,"10 min, 37 °C",baseline: control phage,selectivity ratio,1 ± 0.23
O=C(C[Se]C(=O)c1ccccc1Nc1ccccc1)Nc1cccc(C(F)(F)F)c1,NCI60 breast subpanel,NCI60 five-dose screen,,,,CC50,11 µM
COc1ccccc1-c1ccncc1C(=O)Nc1nnc(OCc2ccc(Cl)cc2)s1,DLD-1 parental (BRCA2 WT),,,"0.125 µM, average of 3 runs",baseline: untreated,colony survival,94.7%

# Excerpt of the above:
Compound,cell line,test,system,setting,how to read,measurement,result
O=C(O)c1ccc(-c2nc(-c3ccccc3Cl)c3sccn23)cc1,HEL,flow cytometry,,0.01 mM,,CD235a-positive cells,86.6%
O=C(C[Se]C(=O)c1ccccc1Nc1ccccc1)Nc1cccc(C(F)(F)F)c1,NCI60 breast subpanel,NCI60 five-dose screen,,,,CC50,11 µM
CC[C@H](C)[C@H](NC(=O)[C@@H](NC(=O)[C@@H]1CCCN1C(=O)[C@@H](NC(=O)[C@@H](NC(=O)[C@H](Cc1c[nH]cn1)NC(=O)[C@@H]1CCCN1C(=O)[C@H](CC(C)C)NC(=O)[C@@H](NC(=O)[C@H](Cc1c[nH]cn1)NC(=O)[C@H](CCCCN)NC(=O)[C@H](C)NC(=O)[C@H](CO)NC(=O)CNC(=O)[C@H](CC(C)C)NC(=O)[C@@H](NC(=O)CNC(=O)[C@H](Cc1ccccc1)NC(=O)[C@H](CC(C)C)NC(=O)CNC(=O)[C@@H](N)Cc1ccc(O)cc1)C(C)C)C(C)C)C(C)C)C(C)C)C(C)C)C(=O)N[C@@H](C)C(=O)N[C@@H](CCC(=O)O)C(=O)N[C@@H](Cc1c[nH]cn1)C(=O)N[C@@H](CC(C)C)C(N)=O,LO2,MTT,,"30 µg/mL, 24 h",,viability,75.8 ± 2.72%
